Published values of several laboratories.
Compare with care: the assays were run in different laboratories.
EGFR T790M: Epidermal growth factor receptor (EGFR, Homo sapiens, UniProt P00533, T790M)
EGFR: Epidermal growth factor receptor (EGFR, Homo sapiens, UniProt P00533)
EGFR L858R: Epidermal growth factor receptor (EGFR, Homo sapiens, UniProt P00533, L858R)

SMILES	target	assay	setting	how to read	measurement	result
CC(C)[C@H]1NC(=O)C[C@H]2/C=C/CCSSC[C@@H](NC1=O)C(=O)N[C@H](Cc1cccc3ccccc13)C(=O)NCC(=O)O2	EGFR T790M	enzyme activity, inhibitor	10 µM		inhibition	-1.9%
Nc1ccc(/C=C/C(=O)N2CCc3c(oc4c(-c5ccc(F)cc5)cc(-c5ccc(C(=O)N6CCC(F)(F)CC6)cn5)cc34)C2)cn1	EGFR	binding, competition with immobilised ligand	1 µM		remaining binding	78%
CS(C)(=O)=Nc1ccc(-c2ccc(-c3nc4cc(O[C@@H]5CO[C@H]6[C@@H]5OC[C@H]6O)[nH]c4cc3F)cc2)cc1	EGFR L858R	enzyme activity, inhibitor	10 µM		inhibition	-16%
CN(/N=C/c1ccccc1C(=O)O)c1nc(-c2ccccc2Cl)cs1	EGFR	enzyme activity, inhibitor	1 µM		inhibition	-22.3%
O=C1NC(=O)c2c1c1cc(F)c[n+]3c1c1c2c2cc(O)ccc2[n]1[Ru-4]312([N]=C=S)[S+]3CC[S+]1CC[S+]2CC3 (centres unmarked)	EGFR (Homo sapiens, UniProt P00533, L861Q)	enzyme activity	100 nM, human enzyme, with: 10 µM ATP	relative to: untreated	remaining activity	108%
O=C(CN1CN(c2ccccc2)C2(CCN(C(=O)c3cnc4[nH]ncc4c3)CC2)C1=O)NCC(F)(F)F	EGFR T790M	inhibitor	concentration not given		inhibition	< 50%
C[C@H](NCc1ccc(-c2ccc(C(F)(F)F)cc2)cc1)C(N)=O	EGFR L858R	cell-free assay, competition with immobilised ligand	1 µM		inhibition	29%
CCOC(=O)[C@@H]1Cc2c(cc([N+](=O)[O-])cc2[N+](=O)[O-])[C@H](O)[C@]12C(=O)Nc1ccc(Br)cc12	EGFR L858R	KINOMEscan	100 nM	relative to: DMSO control	remaining binding	98%

For quick reference, copied from above:
SMILES	target	assay	setting	how to read	measurement	result
CC(C)[C@H]1NC(=O)C[C@H]2/C=C/CCSSC[C@@H](NC1=O)C(=O)N[C@H](Cc1cccc3ccccc13)C(=O)NCC(=O)O2	EGFR T790M	enzyme activity, inhibitor	10 µM		inhibition	-1.9%
